Measured values from different studies.
Every numbered part comes from another study and shows a few of its results, in no order.

Sample 1
Target: Histone acetyltransferase KAT6A, winged helix 2, GST fusion (KAT6A, Homo sapiens, UniProt Q92794, residues 85-181)
Technique: protein binding microarray
Molecule type: double-stranded DNA, one strand shown
Sample: in vitro
Tested at: not given
Setting: 8-mer, flanks averaged, mean of 2 arrays, mostly near background
Reference: not given
Direction: higher = stronger binding
Construct (chain): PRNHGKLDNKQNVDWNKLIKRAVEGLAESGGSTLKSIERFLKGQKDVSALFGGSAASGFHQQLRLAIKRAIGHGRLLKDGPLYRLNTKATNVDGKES
`CCGGTGCA` gave an E-score of 0.116.
For `AGATGGGC`, the E-score was -0.0976.
The E-score of `ACAGGCGA` is reported as 0.129.
`CATACACC` has an E-score of -0.0114.
The E-score of `GTAGCGAA` is reported as -0.0465.

Sample 2
Target: Interferon regulatory factor 7, full length, phosphomimetic (IRF7, Homo sapiens, UniProt Q92985, residues 1-503, S101K/S471D/S472D/S475D/S476D/S477D/S483D/S484D/S487D)
Chain of UniProt Q92985 (whole entry, unmodified, looked up): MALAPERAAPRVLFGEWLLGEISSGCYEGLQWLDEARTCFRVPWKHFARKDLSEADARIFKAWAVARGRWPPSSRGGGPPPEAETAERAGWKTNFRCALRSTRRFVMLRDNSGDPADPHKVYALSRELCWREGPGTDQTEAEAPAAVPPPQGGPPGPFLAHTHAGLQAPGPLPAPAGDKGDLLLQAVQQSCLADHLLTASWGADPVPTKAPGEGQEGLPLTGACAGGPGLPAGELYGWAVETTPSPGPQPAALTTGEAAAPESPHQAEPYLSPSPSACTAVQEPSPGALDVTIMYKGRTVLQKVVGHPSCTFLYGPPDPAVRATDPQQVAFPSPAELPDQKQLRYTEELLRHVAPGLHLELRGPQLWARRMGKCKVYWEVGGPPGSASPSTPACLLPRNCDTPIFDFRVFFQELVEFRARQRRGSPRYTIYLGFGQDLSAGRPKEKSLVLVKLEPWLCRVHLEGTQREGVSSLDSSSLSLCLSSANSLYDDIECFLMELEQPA
Technique: protein-binding microarray
Molecule type: double-stranded DNA, one strand shown
Sample: in vitro
Tested at: 250 nM
Setting: 60-bp whole probe
Added: salmon DNA 0.4 mg/ml
Reference: random background probes
Direction: higher = stronger binding
The log fluorescence of `GCCTAGCACGACGATTCCAGTTTGGAGACGTGCTAGGTCTTGATTCGCTTGACGCTGCTG` is reported as 0.523 z-score.
For `GCCTAGCACTTAGGACTTCTTCTCCTTTAGTGCTAGGTCTTGATTCGCTTGACGCTGCTG`, the log fluorescence was 0.401 z-score.
For `GCCTAGCACTACTACATATCACCTCAATCGTGCTAGGTCTTGATTCGCTTGACGCTGCTG`, the log fluorescence was 0.364 z-score.
With `GCCTAGCACGACGATCTCAGTTTCGAAACGTGCTAGGTCTTGATTCGCTTGACGCTGCTG` the log fluorescence was 5.69 z-score.

Sample 3
Target: Centromere-binding protein 1, full length, N-terminal tag (CBF1, Saccharomyces cerevisiae, UniProt P17106, residues 1-351)
Chain of UniProt P17106 (whole entry, looked up): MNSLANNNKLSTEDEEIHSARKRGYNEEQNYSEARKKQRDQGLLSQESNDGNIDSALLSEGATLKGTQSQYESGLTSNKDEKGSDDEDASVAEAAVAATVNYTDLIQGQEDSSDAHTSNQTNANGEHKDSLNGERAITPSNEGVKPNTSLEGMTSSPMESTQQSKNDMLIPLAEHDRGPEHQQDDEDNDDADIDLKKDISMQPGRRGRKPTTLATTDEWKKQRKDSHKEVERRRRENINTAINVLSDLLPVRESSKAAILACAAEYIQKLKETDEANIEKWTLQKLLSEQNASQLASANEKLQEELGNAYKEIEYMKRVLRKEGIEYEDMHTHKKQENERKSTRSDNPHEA
Technique: protein-binding microarray
Molecule type: double-stranded DNA, one strand shown
Sample: in vitro
Tested at: 0.8 µM
Setting: whole 60-bp probe, no competitor
Direction: higher = stronger binding
The fluorescence intensity of `CTATAAAGCCTAAAGCGCGTGGTTCTTACGAAATTCGTCTTGATTCGCTTGACGCTGCTG` is reported as 538 a.u.
`CTACGAGGATGGAGCAGCCTGATGTCTTTGTAATTCGTCTTGATTCGCTTGACGCTGCTG` has a fluorescence intensity of 508 a.u.
For `CTAGATTTCCTATTGTGCGTGCCTTATTTACGCTTCGTCTTGATTCGCTTGACGCTGCTG`, the fluorescence intensity was 557 a.u.

Mixed results
`PhoQ, residues 284 288 289 292 302 303 SSCCRF` has a fold induction of 0.867 (PhoP, residues 12 14 15 18 19 DLLYY (Escherichia coli, UniProt P23836); Sort-seq, item: YFP reporter; E. coli; PhoQ-PhoP variant library, added: 10 µM Mg2+; reference: high Mg2+ state, higher = stronger signaling).

A few entries again (sample 1):
`CCGGTGCA` gave an E-score of 0.116.
